Experimental data gathered from unrelated publications.
Compare with care: the assays were run in different laboratories. ± gives the spread as reported.

Compound | organism | method | cell line | strain | relative to | selectivity index
CCC1(O)C([N+](=O)[O-])=NNc2nc(SC)nn21 (stereo not shown) | coxsackievirus B3 | – | Vero | Nancy | CC50 over IC50 | 2
CC(=NNC(=N)N)c1nnn(-c2ccc(C#CC3(O)CCCCC3)cc2)c1C | Clostridioides difficile | – | WI-38 | ATCC BAA-1870 | WI-38 IC50 over MIC | 17.6
Nc1ccn(C[C@@H](CO)OCP(=O)(O)OCCCS(=O)(=O)CCCCCCCCCCCCC2CCC2)c(=O)n1 | JC polyomavirus | qPCR | COS-7 | MAD-4 | CC50 over EC50 | 17
CCOC(=O)c1cnn2c1NN=C([N+](=O)[O-])C2(O)CC (stereo not shown) | coxsackievirus B3 | – | Vero | Nancy | CC50 over IC50 | 2
C[C@H]1[C@H](C)CC[C@]2(CO)CC[C@]3(C)C(=CC[C@@H]4[C@@]5(C)CCCNC(C)(C)[C@@H]5CC[C@]43C)[C@H]12 | Human alphaherpesvirus 1 | – | HFF | E-377 | CC50 over EC50 | < 1
CCC1(O)C([N+](=O)[O-])=NNc2ncnn21 (stereo not shown) | coxsackievirus B3 | – | Vero | Nancy | CC50 over IC50 | 2
CC1(C)NCCC[C@]2(C)[C@H]3C=CC4=C5C[C@@](C)(CO)CC[C@]5(C)CC[C@@]4(C)[C@]3(C)CC[C@@H]12 | Human cytomegalovirus | – | HFF | AD169 | CC50 over EC50 | < 3
CC[C@H](C)[C@@H]1NC(=O)[C@@H]2[C@H](CCN2C(=O)[C@@H](NC(=O)[C@@H](C)NC)[C@@H](C)CC)Oc2ccc(OC)c(c2)/C=C\NC1=O | porcine epidemic diarrhea virus | – | Vero cells | – | CC50 over EC50 | 47.1 ± 0.49
Nc1ccn(C[C@@H](CO)OCP(=O)(O)OCCCS(=O)(=O)CCCCCCCCCCCCCC2CCC2)c(=O)n1 | JC polyomavirus | qPCR | COS-7 | MAD-4 | CC50 over EC50 | 14
C=C(C)[C@@H]1CC[C@]2(C(=O)NC(CO)Cc3ccccc3)CC[C@]3(C)[C@H](CC[C@@H]4[C@@]5(C)CCCNC(C)(C)[C@@H]5CC[C@]43C)[C@@H]12 (stereo partly shown) | Human cytomegalovirus | – | HFF | AD169 | CC50 over EC50 | < 3
